# Results of several laboratories.
# Each numbered part is a random draw from the data of one study; scales do not carry over between parts. Values joined by “and” are separate records of one study, mostly repeats; a detail may differ.
# Sequence of UniProt P54646 (whole entry, looked up): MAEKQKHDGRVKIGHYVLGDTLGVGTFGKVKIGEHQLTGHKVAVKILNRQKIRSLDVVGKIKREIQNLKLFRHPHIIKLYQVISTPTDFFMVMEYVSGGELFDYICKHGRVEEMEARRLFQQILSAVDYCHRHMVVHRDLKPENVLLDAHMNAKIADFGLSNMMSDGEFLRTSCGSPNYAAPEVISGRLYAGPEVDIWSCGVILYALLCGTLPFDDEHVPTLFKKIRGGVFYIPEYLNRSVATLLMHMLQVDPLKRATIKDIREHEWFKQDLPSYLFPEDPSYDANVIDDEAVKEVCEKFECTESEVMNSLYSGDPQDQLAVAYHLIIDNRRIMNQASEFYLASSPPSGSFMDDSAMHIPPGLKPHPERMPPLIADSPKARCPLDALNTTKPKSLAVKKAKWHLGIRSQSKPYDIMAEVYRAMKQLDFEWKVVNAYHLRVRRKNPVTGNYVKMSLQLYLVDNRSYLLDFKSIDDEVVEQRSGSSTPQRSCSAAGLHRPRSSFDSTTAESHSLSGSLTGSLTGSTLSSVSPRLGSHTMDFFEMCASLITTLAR
# Sequence of UniProt Q92918 (whole entry, looked up): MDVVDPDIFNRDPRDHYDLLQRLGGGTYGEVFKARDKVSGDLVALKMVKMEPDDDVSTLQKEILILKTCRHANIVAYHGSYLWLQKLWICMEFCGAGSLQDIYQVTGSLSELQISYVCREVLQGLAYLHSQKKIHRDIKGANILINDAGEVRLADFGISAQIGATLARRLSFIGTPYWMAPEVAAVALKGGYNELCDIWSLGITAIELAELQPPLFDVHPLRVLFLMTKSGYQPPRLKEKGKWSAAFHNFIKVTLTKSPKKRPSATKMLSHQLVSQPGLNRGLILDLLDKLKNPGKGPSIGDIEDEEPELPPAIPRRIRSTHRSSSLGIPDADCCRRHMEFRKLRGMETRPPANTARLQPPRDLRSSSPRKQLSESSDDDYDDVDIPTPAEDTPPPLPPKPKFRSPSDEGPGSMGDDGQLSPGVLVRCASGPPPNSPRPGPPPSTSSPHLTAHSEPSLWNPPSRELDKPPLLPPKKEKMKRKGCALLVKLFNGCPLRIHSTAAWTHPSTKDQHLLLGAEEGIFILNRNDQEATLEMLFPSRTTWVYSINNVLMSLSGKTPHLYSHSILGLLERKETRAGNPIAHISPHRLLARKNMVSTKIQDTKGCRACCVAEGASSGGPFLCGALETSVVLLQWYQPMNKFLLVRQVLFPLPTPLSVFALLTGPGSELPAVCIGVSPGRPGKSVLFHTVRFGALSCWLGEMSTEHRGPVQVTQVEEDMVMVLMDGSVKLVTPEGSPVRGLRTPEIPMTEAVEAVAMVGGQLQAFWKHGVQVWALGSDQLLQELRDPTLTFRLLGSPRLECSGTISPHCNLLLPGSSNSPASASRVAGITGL
# Sequence of UniProt P51817 (whole entry, looked up): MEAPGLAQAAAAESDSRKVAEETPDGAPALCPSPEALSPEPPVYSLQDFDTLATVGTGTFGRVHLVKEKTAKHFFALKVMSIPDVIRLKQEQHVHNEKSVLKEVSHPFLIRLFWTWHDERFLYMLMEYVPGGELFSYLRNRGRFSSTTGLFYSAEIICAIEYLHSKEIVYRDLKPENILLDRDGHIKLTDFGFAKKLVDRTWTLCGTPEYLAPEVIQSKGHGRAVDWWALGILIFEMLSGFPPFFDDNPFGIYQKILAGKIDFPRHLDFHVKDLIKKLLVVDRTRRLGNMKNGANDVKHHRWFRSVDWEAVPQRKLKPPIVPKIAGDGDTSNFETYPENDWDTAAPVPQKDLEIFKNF
# Sequence of UniProt O14578 (whole entry, looked up): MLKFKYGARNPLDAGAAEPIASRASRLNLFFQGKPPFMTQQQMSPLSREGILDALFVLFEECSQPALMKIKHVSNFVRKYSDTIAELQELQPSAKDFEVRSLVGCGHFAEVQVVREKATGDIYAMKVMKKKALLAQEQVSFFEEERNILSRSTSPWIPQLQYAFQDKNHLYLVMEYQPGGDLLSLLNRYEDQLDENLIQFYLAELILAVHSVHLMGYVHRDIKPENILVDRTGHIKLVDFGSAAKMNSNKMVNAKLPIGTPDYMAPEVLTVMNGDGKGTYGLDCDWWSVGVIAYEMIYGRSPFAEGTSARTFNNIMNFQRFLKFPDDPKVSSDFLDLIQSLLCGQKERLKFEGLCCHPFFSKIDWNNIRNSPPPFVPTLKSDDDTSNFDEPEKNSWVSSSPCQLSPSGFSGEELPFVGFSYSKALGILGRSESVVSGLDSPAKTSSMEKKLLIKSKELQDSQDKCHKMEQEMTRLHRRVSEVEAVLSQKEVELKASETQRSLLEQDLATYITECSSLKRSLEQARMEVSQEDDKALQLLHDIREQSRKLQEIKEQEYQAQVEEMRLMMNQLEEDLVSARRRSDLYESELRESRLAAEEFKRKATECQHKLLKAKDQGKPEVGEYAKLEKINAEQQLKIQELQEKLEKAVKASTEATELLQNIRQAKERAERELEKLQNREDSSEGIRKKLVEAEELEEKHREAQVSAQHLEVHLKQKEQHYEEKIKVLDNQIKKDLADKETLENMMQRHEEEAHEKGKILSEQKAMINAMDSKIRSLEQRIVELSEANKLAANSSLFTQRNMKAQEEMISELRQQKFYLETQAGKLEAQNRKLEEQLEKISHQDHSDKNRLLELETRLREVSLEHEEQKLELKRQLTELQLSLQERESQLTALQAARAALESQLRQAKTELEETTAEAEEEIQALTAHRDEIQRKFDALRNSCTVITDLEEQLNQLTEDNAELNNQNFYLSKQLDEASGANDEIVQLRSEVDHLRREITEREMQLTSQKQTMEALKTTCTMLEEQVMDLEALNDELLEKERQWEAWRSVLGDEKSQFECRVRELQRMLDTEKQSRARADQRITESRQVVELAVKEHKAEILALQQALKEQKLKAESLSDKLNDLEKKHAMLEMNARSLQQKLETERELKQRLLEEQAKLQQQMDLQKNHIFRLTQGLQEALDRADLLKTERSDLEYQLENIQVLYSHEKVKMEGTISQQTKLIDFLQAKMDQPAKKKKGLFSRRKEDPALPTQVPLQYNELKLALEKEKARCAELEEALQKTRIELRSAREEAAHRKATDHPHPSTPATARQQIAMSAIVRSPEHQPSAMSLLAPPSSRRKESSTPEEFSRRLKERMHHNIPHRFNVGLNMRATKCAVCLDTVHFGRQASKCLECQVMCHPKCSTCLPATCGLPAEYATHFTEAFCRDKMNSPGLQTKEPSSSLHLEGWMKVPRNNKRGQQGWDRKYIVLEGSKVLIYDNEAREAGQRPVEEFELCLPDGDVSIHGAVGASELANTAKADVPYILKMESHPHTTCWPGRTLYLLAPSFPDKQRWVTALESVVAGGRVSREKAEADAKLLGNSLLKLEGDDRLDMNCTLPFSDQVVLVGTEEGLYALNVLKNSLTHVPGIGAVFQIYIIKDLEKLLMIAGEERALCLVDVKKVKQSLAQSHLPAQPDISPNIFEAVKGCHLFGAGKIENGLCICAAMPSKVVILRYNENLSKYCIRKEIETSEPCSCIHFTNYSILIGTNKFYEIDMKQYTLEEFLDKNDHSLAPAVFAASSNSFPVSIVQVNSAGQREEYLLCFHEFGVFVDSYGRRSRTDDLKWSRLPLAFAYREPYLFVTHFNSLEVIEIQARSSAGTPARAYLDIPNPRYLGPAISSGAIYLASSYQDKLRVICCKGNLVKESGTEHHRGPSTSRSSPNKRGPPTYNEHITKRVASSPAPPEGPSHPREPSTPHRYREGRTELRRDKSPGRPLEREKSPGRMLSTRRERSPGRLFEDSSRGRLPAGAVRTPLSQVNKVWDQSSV

# Sample 1
# Organism: Sarcocystis neurona
# Effect on: parasite growth
# Concentration: 10 µM
SMILES,inhibition [%]
NS(=O)(=O)c1cc2c(cc1C(F)(F)F)NC(Cc1ccccc1)NS2(=O)=O (centres unmarked),-22.4
O=C1[C@H](CC[C@H](O)c2ccc(F)cc2)[C@@H](c2ccc(O)cc2)N1c1ccc(F)cc1,24.2
CC(C)/N=c1\cc2n(-c3ccc(Cl)cc3)c3ccccc3nc-2cc1Nc1ccc(Cl)cc1,97.2
COc1ccccc1OCCNCC(O)COc1cccc2[nH]c3ccccc3c12 (centres unmarked),32.2
CC(=O)O[C@]1(C(C)=O)CC[C@H]2[C@@H]3C[C@H](C)C4=CC(=O)CC[C@]4(C)[C@H]3CC[C@@]21C,-26.3
CN1CCCC(n2nc(Cc3ccc(Cl)cc3)c3ccccc3c2=O)CC1 (centres unmarked),83.2
COc1c(N2C[C@@H]3CCCN[C@@H]3C2)c(F)cc2c(=O)c(C(=O)O)cn(C3CC3)c12,6.3
CC(C)[N+]1(C)[C@@H]2CC[C@H]1CC(OC(=O)C(CO)c1ccccc1)C2.[Br-] (some centres unmarked),-23.3
CC[C@]1(O)C[C@H]2CN(CCc3c([nH]c4ccccc34)[C@@](C(=O)OC)(c3cc4c(cc3OC)N(C=O)[C@H]3[C@@](O)(C(=O)OC)[C@H](OC(C)=O)[C@]5(CC)C=CCN6CC[C@]43[C@@H]65)C2)C1,2.5

# Sample 2
# Target: Interleukin-1 receptor-associated kinase 1 (IRAK1, Homo sapiens, UniProt P51617)
# Sequence of UniProt P51617 (whole entry, looked up): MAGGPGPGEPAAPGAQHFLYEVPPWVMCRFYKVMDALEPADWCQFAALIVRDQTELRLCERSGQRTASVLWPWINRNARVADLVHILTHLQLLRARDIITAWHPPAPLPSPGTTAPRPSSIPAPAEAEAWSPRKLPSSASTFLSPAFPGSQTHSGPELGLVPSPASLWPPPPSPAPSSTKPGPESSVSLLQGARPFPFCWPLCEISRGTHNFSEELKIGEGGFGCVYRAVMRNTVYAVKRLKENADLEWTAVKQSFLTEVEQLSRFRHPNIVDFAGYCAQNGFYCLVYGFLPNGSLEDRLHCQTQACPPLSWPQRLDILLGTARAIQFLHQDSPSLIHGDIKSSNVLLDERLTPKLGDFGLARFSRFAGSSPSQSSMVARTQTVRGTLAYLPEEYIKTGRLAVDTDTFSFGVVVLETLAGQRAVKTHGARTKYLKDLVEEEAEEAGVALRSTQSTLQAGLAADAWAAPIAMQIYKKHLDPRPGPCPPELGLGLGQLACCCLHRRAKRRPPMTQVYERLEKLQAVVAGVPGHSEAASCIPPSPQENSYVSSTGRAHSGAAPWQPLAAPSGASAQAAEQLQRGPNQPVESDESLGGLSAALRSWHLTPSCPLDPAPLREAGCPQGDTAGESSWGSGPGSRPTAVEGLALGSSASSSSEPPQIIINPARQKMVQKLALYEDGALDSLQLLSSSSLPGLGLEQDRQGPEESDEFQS
# Effect on: enzyme activity
# Action: inhibitor
# Concentration: 0.5 µM
# Baseline: control
SMILES,remaining activity
OCC(O)CCON=C1C(c2c(O)[nH]c3ccccc23)=Nc2ccccc21 (centres unmarked),34.5%
COc1cc2nccc(Oc3ccc(NC(=S)NC(=O)c4ccccc4C)cc3)c2cc1OC,99.6%
Cc1nc(-c2ccccc2)c(-c2ccncc2)o1,124%
Nc1[nH]nc2nc3ccccc3nc12,88.9%
N#CC(C#N)=C(N)/C(C#N)=C/c1ccc(O)cc1,123%
Cn1c2ccccc2c2c3c(c4c5ccccc5n(CCC#N)c4c21)CNC3=O,6.43%
O=C(CCCc1ccc(-c2ccccc2F)cc1)Nc1ccc(O)cc1,100%
COc1cc2ncnc(Nc3ccc(Oc4ccccc4)cc3)c2cc1OC,122%
CC(C)[C@H](CO)Nc1nc(Nc2cc(N)cc(Cl)c2)c2ncn(C(C)C)c2n1,97.1%
O=C1NC(=O)C(c2cn(CCCn3ccnc3)c3ccccc23)=C1Nc1ccccc1,118%
Oc1ccc(-c2nc(-c3ccncc3)c(-c3ccc(F)cc3)[nH]2)cc1,123%
Cc1ccc(Nc2nccc(N(C)c3ccc4c(C)n(C)nc4c3)n2)cc1S(N)(=O)=O,97%
COc1ccc(C(=O)Nc2sc3c(c2C(N)=O)CCCC3)cc1OC,79.8%
C#Cc1cccc(Nc2ncnc3cc(OCCOC)c(OCCOC)cc23)c1,95.9%
COc1ccc(CNC(=O)Nc2ncc([N+](=O)[O-])s2)cc1,108%
O=C(O)c1ccc2c3c1cccc3c(=O)n1c3ccccc3nc21,61.1%

# Sample 3
# Target: 5-hydroxytryptamine receptor 1D (HTR1D, Homo sapiens, UniProt P28221)
# Sequence of UniProt P28221 (whole entry, looked up): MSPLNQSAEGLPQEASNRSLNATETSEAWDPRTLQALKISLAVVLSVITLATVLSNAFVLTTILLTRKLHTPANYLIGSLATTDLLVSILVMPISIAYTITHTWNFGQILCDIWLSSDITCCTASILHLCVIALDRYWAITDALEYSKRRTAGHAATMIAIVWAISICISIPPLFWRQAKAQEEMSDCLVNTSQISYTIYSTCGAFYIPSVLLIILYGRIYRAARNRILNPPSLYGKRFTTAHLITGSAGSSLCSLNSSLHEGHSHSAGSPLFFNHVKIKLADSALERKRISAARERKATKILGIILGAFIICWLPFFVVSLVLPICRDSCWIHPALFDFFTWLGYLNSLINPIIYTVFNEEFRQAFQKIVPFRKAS
# Effect on: cell-free assay
# Concentration: 10 µM
SMILES,inhibition
CN1C(=O)[C@@H](N2CCc3cn(Cc4ccccc4)nc3C2=O)COc2ccccc21,-13.7%
O=C(NNS(=O)(=O)c1ccccc1)c1cc(-c2ccnnc2)ccc1F,-15%
CN(C)c1ncnc(-c2ccc3nc(Nc4cc(CN5CCN(C(=O)CC(F)(F)F)CC5)ccn4)[nH]c3c2)c1Cl,19.5%
O=C1c2ccc(Nc3ccc(F)cc3F)cc2CCc2ccc(OC[C@H](O)CO)cc21,23.8%
Cc1ncc(-c2cc(Cl)ccc2F)cc1-n1c(=O)n(CC(N)=O)c2ccccc21,-22.6%
CN(C)C(=O)c1sc2nc(N3CCC(S(C)(=O)=O)CC3)cc(C(F)(F)F)c2c1N,6.7%
N#CC1(c2ccccn2)CCN(Cc2cc(C(=O)N3CCCC3)c(=O)n3ccccc23)CC1,14.6%
O=C(NNS(=O)(=O)c1ccccc1F)c1cc(F)cc(-c2ccccn2)c1,-0.66%
CC(=O)Nc1nc(CN2CCC[C@H](Cc3cc(C)nc(C)c3)C2)cs1,14.5%
CC1CCN(c2ccnc(NCc3cn(C)cn3)n2)CC1,81.9%
c1ccc(C2CCN(c3cnc4c(N5CCOCC5)nccn34)CC2)cc1,1.09%
CCC(=NO)C(C)=Cc1ccc(F)c(C)c1,4.54%
COCc1nc2cnc3cc(-c4c(C)noc4C)c(OC[C@H]4CCNC4)cc3c2n1[C@H](C)c1ccccc1,14.8%

# Sample 4
# Structure (SMILES): CC(C)S(=O)(=O)c1ccc2nccc(Nc3ccc4sc(C5CCCC5)nc4c3)c2c1.Cl
# Concentration: 1 µM
target,effect on,action,remaining activity
"ERN1 (Homo sapiens, UniProt O75460)",kinase activity,inhibitor,100%
"MAP4K1 (Homo sapiens, UniProt Q92918)",kinase activity,inhibitor,99%
PKCβII(h) (human),,,107% and 97%
"SRPK3 (Homo sapiens, UniProt Q9UPE1)",kinase activity,inhibitor,104%
"PRKX (Homo sapiens, UniProt P51817)",kinase activity,inhibitor,105%
"EPHA8 (Homo sapiens, UniProt P29322)",kinase activity,inhibitor,99%
"PRKACA (Homo sapiens, UniProt P17612)",kinase activity,inhibitor,115%
"PRKAA2 (Homo sapiens, UniProt P54646)",kinase activity,inhibitor,86%
"RPS6KA4 (Homo sapiens, UniProt O75676)",kinase activity,inhibitor,90%
"CIT (Homo sapiens, UniProt O14578)",kinase activity,inhibitor,103%
"ABL1 (Homo sapiens, UniProt P00519)",kinase activity,inhibitor,83%
"GRK4 (Homo sapiens, UniProt P32298)",kinase activity,inhibitor,107%
